Measured values of several laboratories.
A part holds a random share of what one study measured. Several values in a cell are separate wells, animals, samples, runs or records.
UniProt Q00537, sequence (whole entry, looked up): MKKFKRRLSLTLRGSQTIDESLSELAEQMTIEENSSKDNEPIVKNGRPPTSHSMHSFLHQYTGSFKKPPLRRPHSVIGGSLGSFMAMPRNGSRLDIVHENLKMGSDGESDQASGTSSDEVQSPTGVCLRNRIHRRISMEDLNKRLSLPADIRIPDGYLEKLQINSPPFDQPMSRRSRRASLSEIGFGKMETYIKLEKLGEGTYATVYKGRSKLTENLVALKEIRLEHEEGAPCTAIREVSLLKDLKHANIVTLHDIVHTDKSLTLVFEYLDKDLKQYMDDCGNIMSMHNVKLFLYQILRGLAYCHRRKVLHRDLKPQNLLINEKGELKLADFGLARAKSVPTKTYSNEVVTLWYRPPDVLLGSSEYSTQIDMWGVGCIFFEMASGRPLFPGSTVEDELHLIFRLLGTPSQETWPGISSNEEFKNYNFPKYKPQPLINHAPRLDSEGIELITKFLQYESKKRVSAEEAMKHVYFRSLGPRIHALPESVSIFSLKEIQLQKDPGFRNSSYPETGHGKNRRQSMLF
UniProt Q12851, sequence (whole entry, looked up): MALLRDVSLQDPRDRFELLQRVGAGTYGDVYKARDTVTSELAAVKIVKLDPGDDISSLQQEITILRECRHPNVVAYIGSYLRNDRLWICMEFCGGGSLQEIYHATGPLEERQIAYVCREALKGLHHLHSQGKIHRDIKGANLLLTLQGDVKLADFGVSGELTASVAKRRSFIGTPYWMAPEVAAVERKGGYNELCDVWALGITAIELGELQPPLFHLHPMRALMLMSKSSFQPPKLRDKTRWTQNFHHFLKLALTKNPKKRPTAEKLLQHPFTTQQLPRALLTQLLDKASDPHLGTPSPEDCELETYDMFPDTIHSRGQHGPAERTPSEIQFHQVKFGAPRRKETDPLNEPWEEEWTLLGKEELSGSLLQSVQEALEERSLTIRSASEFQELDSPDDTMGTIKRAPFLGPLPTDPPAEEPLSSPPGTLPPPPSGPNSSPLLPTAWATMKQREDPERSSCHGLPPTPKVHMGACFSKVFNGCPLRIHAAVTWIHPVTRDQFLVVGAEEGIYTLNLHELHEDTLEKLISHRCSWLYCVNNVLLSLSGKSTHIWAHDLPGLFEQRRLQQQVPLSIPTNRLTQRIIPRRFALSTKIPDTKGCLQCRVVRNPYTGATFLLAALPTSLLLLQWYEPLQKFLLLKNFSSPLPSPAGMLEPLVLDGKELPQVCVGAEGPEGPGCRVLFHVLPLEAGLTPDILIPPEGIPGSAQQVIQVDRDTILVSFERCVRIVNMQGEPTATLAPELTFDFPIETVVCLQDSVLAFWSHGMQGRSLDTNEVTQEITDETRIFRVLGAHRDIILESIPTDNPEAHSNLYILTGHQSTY
UniProt O75460, sequence (whole entry, looked up): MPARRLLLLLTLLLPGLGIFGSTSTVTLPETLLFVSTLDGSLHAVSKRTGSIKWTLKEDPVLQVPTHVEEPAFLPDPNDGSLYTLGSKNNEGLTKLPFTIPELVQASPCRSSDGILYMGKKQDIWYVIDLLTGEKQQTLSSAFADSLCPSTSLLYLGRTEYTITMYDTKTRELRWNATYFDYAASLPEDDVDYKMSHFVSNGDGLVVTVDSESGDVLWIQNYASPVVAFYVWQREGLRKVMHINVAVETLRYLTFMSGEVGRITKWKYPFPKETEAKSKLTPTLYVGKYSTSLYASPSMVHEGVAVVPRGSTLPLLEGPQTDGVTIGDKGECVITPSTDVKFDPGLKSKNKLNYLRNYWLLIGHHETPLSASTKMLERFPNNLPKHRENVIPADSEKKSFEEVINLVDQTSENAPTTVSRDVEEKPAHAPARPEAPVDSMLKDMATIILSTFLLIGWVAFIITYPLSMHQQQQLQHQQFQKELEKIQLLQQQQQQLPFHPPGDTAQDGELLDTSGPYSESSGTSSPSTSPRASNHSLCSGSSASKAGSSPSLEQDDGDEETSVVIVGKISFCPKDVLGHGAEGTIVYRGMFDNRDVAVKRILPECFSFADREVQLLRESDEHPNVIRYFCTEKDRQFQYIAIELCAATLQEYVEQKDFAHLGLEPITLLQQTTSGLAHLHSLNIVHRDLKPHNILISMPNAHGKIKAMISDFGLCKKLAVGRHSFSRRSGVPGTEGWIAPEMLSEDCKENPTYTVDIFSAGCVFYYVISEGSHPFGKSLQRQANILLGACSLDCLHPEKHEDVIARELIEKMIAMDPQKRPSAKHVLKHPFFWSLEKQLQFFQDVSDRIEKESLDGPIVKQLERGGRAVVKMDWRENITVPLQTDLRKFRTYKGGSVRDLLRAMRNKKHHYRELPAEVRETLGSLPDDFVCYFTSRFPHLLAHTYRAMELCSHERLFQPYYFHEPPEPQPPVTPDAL
UniProt Q15349, sequence (whole entry, looked up): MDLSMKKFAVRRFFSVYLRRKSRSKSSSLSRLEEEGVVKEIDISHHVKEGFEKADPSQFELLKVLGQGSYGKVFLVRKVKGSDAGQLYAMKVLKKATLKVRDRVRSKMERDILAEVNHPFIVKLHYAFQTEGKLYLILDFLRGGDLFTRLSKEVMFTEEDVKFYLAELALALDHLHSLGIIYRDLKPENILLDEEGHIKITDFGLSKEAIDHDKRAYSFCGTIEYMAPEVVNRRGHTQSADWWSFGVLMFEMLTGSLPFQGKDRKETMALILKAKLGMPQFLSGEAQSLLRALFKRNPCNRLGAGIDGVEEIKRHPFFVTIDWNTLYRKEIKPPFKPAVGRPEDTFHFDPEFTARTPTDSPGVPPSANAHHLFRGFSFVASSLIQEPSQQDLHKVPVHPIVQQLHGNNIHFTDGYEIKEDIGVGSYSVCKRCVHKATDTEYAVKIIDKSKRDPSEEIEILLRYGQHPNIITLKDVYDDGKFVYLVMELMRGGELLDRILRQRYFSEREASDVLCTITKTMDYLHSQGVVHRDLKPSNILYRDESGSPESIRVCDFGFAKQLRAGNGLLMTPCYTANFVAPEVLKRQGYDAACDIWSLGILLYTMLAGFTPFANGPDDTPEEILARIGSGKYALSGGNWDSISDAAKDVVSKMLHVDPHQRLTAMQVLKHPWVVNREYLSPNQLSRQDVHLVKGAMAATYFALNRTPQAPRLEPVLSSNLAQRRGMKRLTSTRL
UniProt P19784, sequence (whole entry, looked up): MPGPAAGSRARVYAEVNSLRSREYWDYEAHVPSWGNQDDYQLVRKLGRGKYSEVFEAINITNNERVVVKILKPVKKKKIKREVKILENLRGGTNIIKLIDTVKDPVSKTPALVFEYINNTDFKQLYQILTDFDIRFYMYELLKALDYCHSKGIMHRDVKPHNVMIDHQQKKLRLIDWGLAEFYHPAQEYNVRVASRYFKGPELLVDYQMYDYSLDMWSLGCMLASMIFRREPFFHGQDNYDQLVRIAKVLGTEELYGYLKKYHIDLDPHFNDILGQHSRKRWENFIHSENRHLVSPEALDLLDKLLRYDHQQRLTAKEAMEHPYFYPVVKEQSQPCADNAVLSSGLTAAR
UniProt P49841, sequence (whole entry, looked up): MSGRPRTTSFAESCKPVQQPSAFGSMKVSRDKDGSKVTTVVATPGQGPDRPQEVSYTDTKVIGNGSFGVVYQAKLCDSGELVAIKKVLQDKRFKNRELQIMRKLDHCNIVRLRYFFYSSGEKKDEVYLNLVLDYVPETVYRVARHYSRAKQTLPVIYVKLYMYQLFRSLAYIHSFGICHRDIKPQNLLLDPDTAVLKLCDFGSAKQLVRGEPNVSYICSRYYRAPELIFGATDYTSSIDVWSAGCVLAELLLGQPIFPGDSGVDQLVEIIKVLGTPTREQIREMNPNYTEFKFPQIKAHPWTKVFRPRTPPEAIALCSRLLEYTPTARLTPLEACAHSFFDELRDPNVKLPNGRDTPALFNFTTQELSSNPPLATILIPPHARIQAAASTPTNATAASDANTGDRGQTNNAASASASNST
UniProt P08631, sequence (whole entry, looked up): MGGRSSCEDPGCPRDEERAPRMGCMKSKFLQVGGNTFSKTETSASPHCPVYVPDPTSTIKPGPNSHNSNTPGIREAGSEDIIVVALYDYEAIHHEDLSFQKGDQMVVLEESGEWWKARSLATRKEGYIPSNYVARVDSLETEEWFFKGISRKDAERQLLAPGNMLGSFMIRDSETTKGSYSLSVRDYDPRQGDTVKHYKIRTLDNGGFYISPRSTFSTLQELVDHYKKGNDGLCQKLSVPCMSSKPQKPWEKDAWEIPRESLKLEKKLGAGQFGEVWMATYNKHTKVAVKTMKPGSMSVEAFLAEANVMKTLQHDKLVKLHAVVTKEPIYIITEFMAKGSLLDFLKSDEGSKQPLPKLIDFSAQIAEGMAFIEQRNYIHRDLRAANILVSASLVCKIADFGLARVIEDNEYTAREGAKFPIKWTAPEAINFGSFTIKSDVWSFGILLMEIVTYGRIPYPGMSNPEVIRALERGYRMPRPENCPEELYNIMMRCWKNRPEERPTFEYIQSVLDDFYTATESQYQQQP
UniProt P48730, sequence (whole entry, looked up): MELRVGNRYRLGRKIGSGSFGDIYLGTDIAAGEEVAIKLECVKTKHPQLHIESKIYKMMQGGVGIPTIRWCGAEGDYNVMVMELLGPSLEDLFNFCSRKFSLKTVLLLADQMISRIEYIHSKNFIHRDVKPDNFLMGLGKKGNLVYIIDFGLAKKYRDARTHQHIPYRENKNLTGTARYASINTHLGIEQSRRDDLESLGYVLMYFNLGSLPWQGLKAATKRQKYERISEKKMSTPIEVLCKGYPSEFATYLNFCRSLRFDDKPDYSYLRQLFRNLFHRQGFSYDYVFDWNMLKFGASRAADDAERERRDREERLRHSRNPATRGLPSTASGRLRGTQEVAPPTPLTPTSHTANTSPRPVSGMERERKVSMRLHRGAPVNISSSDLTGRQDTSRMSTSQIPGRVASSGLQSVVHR

Set 1
Cell line: mouse MPNST tumor cells
Method: high-content immunofluorescence imaging
Item: nuclear SOX9
Concentration: 10 µM
Time: 12 h
Notes: mean of 2 replicates
Reference: DMSO control
Reading: higher = more nuclear SOX9
Quantity: nuclear SOX9 intensity
SMILES = C[C@H]1O[C@@H](O[C@H]2[C@@H](O)C[C@H](O[C@H]3[C@@H](O)C[C@H](O[C@H]4CC[C@@]5(C)[C@H](CC[C@@H]6[C@@H]5C[C@@H](O)[C@]5(C)[C@@H](C7=CC(=O)OC7)CC[C@]65O)C4)O[C@@H]3C)O[C@@H]2C)C[C@H](O)[C@@H]1O; result = 101 % of DMSO
SMILES = CC1CCc2c(N3CCC(O)CC3)c(F)cc3c(=O)c(C(=O)O)cn1c23 (stereo not shown); result = 95.6 % of DMSO
SMILES = Cc1ccc(C=C2CNCC(=Cc3ccc(C)cc3)C2=O)cc1; result = 104 % of DMSO
SMILES = C[C@]1(Cn2ccnn2)[C@H](C(=O)O)N2C(=O)C[C@H]2S1(=O)=O; result = 98.2 % of DMSO
SMILES = COc1ccc(C2CNC(=O)C2)cc1OC1CCCC1 (stereo not shown); result = 88.8 % of DMSO
SMILES = CN1CCN(C2=Nc3ccccc3Oc3ccc(Cl)cc32)CC1; result = 121 % of DMSO
SMILES = c1ccc2c(c1)CCC[C@H]2Nc1nc2ccccc2[nH]1; result = 110 % of DMSO
SMILES = COCCCOc1cc(C[C@@H](C[C@H](N)[C@@H](O)C[C@H](C(=O)NCC(C)(C)C(N)=O)C(C)C)C(C)C)ccc1OC; result = 124 % of DMSO and 88.8 % of DMSO and 99.5 % of DMSO
SMILES = CCCCCCCCOc1ccc(-c2noc([C@@H]3CCC[N+]3=C(N)N)n2)cc1C(F)(F)F; result = 81.6 % of DMSO
SMILES = CC(=O)OC(C)C[N+](C)(C)C (stereo not shown); result = 104 % of DMSO
SMILES = O=C(CCSCc1ccco1)NNC(=O)N1Cc2ccccc2Oc2ccc(Cl)cc21; result = 115 % of DMSO

Set 2
Structure (SMILES): CC1=C(C#N)C(c2ccc3c(c2)c(NC(=O)c2ccccc2C)nn3C)C(C#N)=C(C)N1
Concentration: 1 µM
Quantity: remaining binding
target = CDK19 (Homo sapiens, UniProt Q9BWU1); method = competition binding; result = 74%
target = EGFR (Homo sapiens, UniProt P00533, del747-750/T751S); read-out = cell-free assay; method = competition with immobilised ligand; result = 78%
target = MKNK2 (Homo sapiens, UniProt Q9HBH9); read-out = cell-free assay; method = competition with immobilised ligand; result = 100%
target = MAP4K2 (Homo sapiens, UniProt Q12851); read-out = cell-free assay; method = competition with immobilised ligand; result = 99%
target = Receptor-type tyrosine-protein kinase FLT3, autoinhibited (FLT3, Homo sapiens, UniProt P36888); read-out = cell-free assay; method = competition with immobilised ligand; result = 96%
target = PIK3CA (Homo sapiens, UniProt P42336, E542K); read-out = cell-free assay; method = competition with immobilised ligand; result = 91%
target = HCK (Homo sapiens, UniProt P08631); read-out = cell-free assay; method = competition with immobilised ligand; result = 66%
target = STK11 (Homo sapiens, UniProt Q15831); read-out = cell-free assay; method = competition with immobilised ligand; result = 89%
target = CDK17 (Homo sapiens, UniProt Q00537); read-out = cell-free assay; method = competition with immobilised ligand; result = 100%
target = CSNK1D (Homo sapiens, UniProt P48730); read-out = cell-free assay; method = competition with immobilised ligand; result = 89%
target = ERN1 (Homo sapiens, UniProt O75460); read-out = cell-free assay; method = competition with immobilised ligand; result = 84%
target = STK10 (Homo sapiens, UniProt O94804); read-out = cell-free assay; method = competition with immobilised ligand; result = 68%
target = EGFR (Homo sapiens, UniProt P00533, T790M); read-out = cell-free assay; method = competition with immobilised ligand; result = 100%
target = MAP3K3 (Homo sapiens, UniProt Q99759); read-out = cell-free assay; method = competition with immobilised ligand; result = 77%
target = GSK3B (Homo sapiens, UniProt P49841); read-out = cell-free assay; method = competition with immobilised ligand; result = 81%
target = MET (Homo sapiens, UniProt P08581, Y1235D); read-out = cell-free assay; method = competition with immobilised ligand; result = 74%
target = Ribosomal protein S6 kinase alpha-2, N-terminal kinase domain (RPS6KA2, Homo sapiens, UniProt Q15349); read-out = cell-free assay; method = competition with immobilised ligand; result = 83%
target = CSNK2A2 (Homo sapiens, UniProt P19784); read-out = cell-free assay; method = competition with immobilised ligand; result = 100%
target = AKT2 (Homo sapiens, UniProt P31751); read-out = cell-free assay; method = competition with immobilised ligand; result = 100%
target = WEE1 (Homo sapiens, UniProt P30291); read-out = cell-free assay; method = competition with immobilised ligand; result = 100%

Set 3
Cell line: HaCaT
Concentration: 100 µM
Time: 18 h
Quantity: viability
Structure (SMILES) = Cc1cccn2c(=O)c(-c3nnn[nH]3)cnc12; result = 99.2%
Structure (SMILES) = O=P(O)(O)C(O)(Cn1ccnc1)P(=O)(O)O; result = 111%
Structure (SMILES) = CCN(CC)CCOCCOC(=O)C(CC)(CC)c1ccccc1; result = 112%
Structure (SMILES) = CN(C)c1cc(NC(=O)CNC(C)(C)C)c(O)c2c1C[C@H]1C[C@H]3[C@H](N(C)C)C(O)=C(C(N)=O)C(=O)[C@@]3(O)C(O)=C1C2=O; result = 89.3%
Structure (SMILES) = CC[C@@H]([C@H](C)O)n1ncn(-c2ccc(N3CCN(c4ccc(OC[C@@H]5CO[C@@](Cn6cncn6)(c6ccc(F)cc6F)C5)cc4)CC3)cc2)c1=O; result = 52.6%
Structure (SMILES) = COC(=O)Nc1nc2cc(C(=O)c3ccc(F)cc3)ccc2[nH]1; result = 60.1%
Structure (SMILES) = Cc1cn(-c2cc(NC(=O)c3ccc(C)c(Nc4nccc(-c5cnccn5)n4)c3)cc(C(F)(F)F)c2)cn1; result = 60.8%
Structure (SMILES) = O=C(O)CCCc1ccccc1; result = 116%
Structure (SMILES) = CC1=C(/C=C/C(C)=C/C=C/C(C)=C/C=C/C=C(C)/C=C/C=C(C)/C=C/C2=C(C)CCCC2(C)C)C(C)(C)CCC1; result = 36.7%
Structure (SMILES) = CCCCC(=O)O[C@]1(C(=O)CO)[C@@H](C)C[C@H]2[C@@H]3CCC4=CC(=O)C=C[C@]4(C)[C@@]3(F)[C@@H](O)C[C@@]21C; result = 38.5%
Structure (SMILES) = CN(C)CCCOc1nn(Cc2ccccc2)c2ccccc12; result = 89.2%

Other studies, line by line
Structure (SMILES) = COc1ccc(Oc2cc(NCCC(F)(F)F)c3ncc(-c4ccc(C(=O)NC5CC5)c(C)c4)n3n2)c(F)c1F; cell line = NCI-H1048; method = Vi-Cell; concentration = 3 nM; time = 3 d; reference = DMSO; quantity = cell count; result = 0.65 and 0.792

A few entries again (set 2):
target = EGFR (Homo sapiens, UniProt P00533, del747-750/T751S); read-out = cell-free assay; method = competition with immobilised ligand; result = 78%
target = MKNK2 (Homo sapiens, UniProt Q9HBH9); read-out = cell-free assay; method = competition with immobilised ligand; result = 100%
target = MAP4K2 (Homo sapiens, UniProt Q12851); read-out = cell-free assay; method = competition with immobilised ligand; result = 99%
target = Receptor-type tyrosine-protein kinase FLT3, autoinhibited (FLT3, Homo sapiens, UniProt P36888); read-out = cell-free assay; method = competition with immobilised ligand; result = 96%
target = PIK3CA (Homo sapiens, UniProt P42336, E542K); read-out = cell-free assay; method = competition with immobilised ligand; result = 91%
target = HCK (Homo sapiens, UniProt P08631); read-out = cell-free assay; method = competition with immobilised ligand; result = 66%
target = STK11 (Homo sapiens, UniProt Q15831); read-out = cell-free assay; method = competition with immobilised ligand; result = 89%
